Measurements pooled from the literature.
Numbered parts are unrelated; each lists some results of a single study.

Set 1 — technique: RNA Bind-n-Seq; molecule type: RNA; medium: in vitro; concentration: 365 nM; relative to: no-protein control; direction: higher = stronger binding; quantity: RBNS enrichment (R)
Target: RNA binding protein fox-1 homolog 2, RRM domain, GST-SBP tag (RBFOX2, Homo sapiens, UniProt O43251-10, residues 100-194)
Notes: natural RNA segment, single round, ends assumed
Construct (chain): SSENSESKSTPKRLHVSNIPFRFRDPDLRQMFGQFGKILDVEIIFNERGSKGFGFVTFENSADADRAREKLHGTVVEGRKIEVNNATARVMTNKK
Strand = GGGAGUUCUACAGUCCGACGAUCAGGUUGUUUAAAAAGUCAGAAUUUCUGAGUACCAUUUCAGUCUGGAGGCUUUUAGCUGAGUCCAGGUAUAAAUUAGCCAUAAACAGUCAAUGACCCACAGUAGUCUUUAGUGGAAUUCUCGGGUGCCAA; value = 0.297
Strand = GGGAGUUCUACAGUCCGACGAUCACACCCGCUGAUCCUUUAACAAGGAUUUCUGGCAGGAAACUCACAAAAAGGAGAACUGAAAAUUUAGACAUACAGUUGGCCAUUGUAAAAAACAUCAGUUUCCUCUCAUAUGGAAUUCUCGGGUGCCAA; value = 0.38
Strand = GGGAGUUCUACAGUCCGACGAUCGCUUUCCUGUGACUUGAUUGGGAUACAGGCAUUUAACUUUGGAAGGCUAGUUUGGUGCCUGCUCUGGGUCAUACACCUGAUCUGGAAGAACAAAGCUUAAGCUGCCUUUGUGGAAUUCUCGGGUGCCAA; value = 0.375
Strand = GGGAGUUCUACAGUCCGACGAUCUCCCAGCUCCACUGGCCCAAGUCUGAGCCGGAGGCCCUUGUUUUGGGGGCGGGGGGAGAGUUGGAUGUGAUUGCCCUUGAAGAACAAGGCUGACCUGAGAGGUUCCUGGCUGGAAUUCUCGGGUGCCAA; value = 0.462
Strand = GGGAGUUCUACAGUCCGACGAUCCUUUUUUUAACAAUGAGCAUGAAGGUAGCAGAAGCUGGUGUGUUUCCAGAUGGUUCUUCUAACCAAACUAAUUUUUCACUGUUGACAAGCGAGGCAAGGGUUGCACUGGAUGGAAUUCUCGGGUGCCAA; value = 1.8
Strand = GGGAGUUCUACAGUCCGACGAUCAAAUCUUAUAAAACCCUUGAAAAUAAACAGUCUCUUUUUUACAAAGCCUGUGUUAGAGCACAGAUUUACCUAGGCUUGAAGAUUUGGAAGAAAUAAUAUGUAAGAAUGGCUGGAAUUCUCGGGUGCCAA; value = 0.604
Strand = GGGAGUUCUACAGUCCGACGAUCUUAGUCAUGAUAAAAAUGAAGCUGUAAUAUCAAGGUCAUACAAGUAUAAACAUAUAUGUCCAAUUUUUAAACUACUUCCACCUUACAAGUUGUUCAAAAUACAUUAUUAGUGGAAUUCUCGGGUGCCAA; value = 0.617
Strand = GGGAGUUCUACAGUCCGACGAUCAUUGAAAAGACACUCCUCCACUUAUCCCCUCCGUGAUAUGGCUCUUCGCAUGCUGAGUACUGGACCUCGGACCAGAGCCAUGUAAGAAAAGGCCUGUUCCCUGGAAGCCCUGGAAUUCUCGGGUGCCAA; value = 8.15

Set 2 — technique: universal PBM; molecule type: double-stranded DNA, one strand shown; medium: in vitro; concentration: 600 nM; direction: higher = stronger binding; quantity: E-score
Target: Sal-like protein 4, full length isoform A (SALL4, Homo sapiens, UniProt Q9UJQ4, residues 1-1053)
Chain of UniProt Q9UJQ4 (whole entry, looked up): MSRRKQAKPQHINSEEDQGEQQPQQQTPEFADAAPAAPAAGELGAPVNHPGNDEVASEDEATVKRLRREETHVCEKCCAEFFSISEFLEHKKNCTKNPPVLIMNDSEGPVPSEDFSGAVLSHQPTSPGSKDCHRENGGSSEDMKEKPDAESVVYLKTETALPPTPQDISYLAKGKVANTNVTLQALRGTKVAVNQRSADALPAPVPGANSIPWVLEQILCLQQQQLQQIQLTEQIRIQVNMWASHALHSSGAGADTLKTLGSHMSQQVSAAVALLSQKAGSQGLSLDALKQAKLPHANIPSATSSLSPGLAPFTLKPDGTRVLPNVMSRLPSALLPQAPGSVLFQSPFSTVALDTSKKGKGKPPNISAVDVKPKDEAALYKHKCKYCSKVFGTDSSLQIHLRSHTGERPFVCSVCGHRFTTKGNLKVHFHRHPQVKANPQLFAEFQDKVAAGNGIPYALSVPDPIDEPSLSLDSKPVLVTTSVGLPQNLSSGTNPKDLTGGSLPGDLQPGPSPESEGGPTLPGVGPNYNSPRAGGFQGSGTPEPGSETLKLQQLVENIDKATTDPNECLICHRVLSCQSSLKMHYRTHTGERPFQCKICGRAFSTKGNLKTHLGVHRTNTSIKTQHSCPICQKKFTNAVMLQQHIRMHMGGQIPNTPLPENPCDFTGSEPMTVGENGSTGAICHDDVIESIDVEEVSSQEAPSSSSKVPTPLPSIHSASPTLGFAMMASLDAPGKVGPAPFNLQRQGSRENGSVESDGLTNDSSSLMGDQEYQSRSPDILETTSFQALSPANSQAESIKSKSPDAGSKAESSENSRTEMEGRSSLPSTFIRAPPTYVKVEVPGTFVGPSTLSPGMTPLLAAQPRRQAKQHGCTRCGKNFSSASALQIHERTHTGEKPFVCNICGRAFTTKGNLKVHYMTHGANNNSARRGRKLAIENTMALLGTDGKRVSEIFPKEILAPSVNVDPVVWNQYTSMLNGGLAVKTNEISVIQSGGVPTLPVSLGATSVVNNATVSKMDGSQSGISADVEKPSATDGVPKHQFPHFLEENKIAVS
Notes: 8-mer, flanks averaged, mean of replicates
Strand = CACATAAG; value = 0.191
Strand = CACAGTGC; value = -0.295
Strand = GCCGCGAC; value = -0.382
Strand = CTGTCTGA; value = -0.0359
Strand = GATGGGAC; value = -0.15
Strand = ATTCGCAG; value = 0.11
Strand = GCCGATCC; value = -0.194
Strand = ATAACCCA; value = 0.212

Set 3 — mode: inhibitor; concentration: 20 µM; quantity: inhibition
Target: Replicase polyprotein 1ab, nsp13 helicase (rep, Severe acute respiratory syndrome coronavirus 2, UniProt P0DTD1)
SMILES = CC1(C)CCC2=C(O1)c1ccccc1C(=O)C2=O; value = 10.7%
SMILES = C=CCc1ccccc1OCC(O)CNC(C)C (stereo not drawn); value = 7.45%
SMILES = CC[C@@](C)(Nc1ccnc(-c2c[nH]c3ncccc23)n1)C(=O)NCC(F)(F)F; value = 2.63%
SMILES = CC[C@H](/C=C/[C@@H](C)[C@H]1CC[C@H]2[C@@H]3CC=C4C[C@@H](O)CC[C@]4(C)[C@H]3CC[C@]12C)C(C)C; value = 0.42%
SMILES = C[C@]1(COc2ccc(N3CCC(Oc4ccc(OC(F)(F)F)cc4)CC3)cc2)Cn2cc([N+](=O)[O-])nc2O1; value = -24%
SMILES = CC1c2ccccc2CN1CC1=NCCN1 (stereo not drawn); value = 2.79%
SMILES = O=C1NCN(c2ccccc2)C12CCN(CCCC(c1ccc(F)cc1)c1ccc(F)cc1)CC2; value = 6.86%
SMILES = CN[C@H]1C(=O)N[C@@H]2Cc3ccc(cc3)Oc3cc4cc(c3O[C@@H]3O[C@H](C(=O)O)[C@@H](O)[C@H](O)[C@H]3NC(=O)CCCCCCCCC(C)C)Oc3ccc(cc3Cl)[C@@H](O)[C@@H]3NC(=O)[C@H](NC(=O)[C@@H]4NC(=O)[C@@H](NC2=O)c2cc(cc(O)c2Cl)Oc2cc1ccc2O)c1ccc(O)c(c1)-c1c(O[C@H]2O[C@H](CO)[C@@H](O)[C@H](O)[C@@H]2O)cc(O)cc1[C@@H](C(=O)NCCCN(C)C)NC3=O; value = 19%
SMILES = CC12CCC(C(=O)N(CCCCN3CCN(c4ccccn4)CC3)C1=O)C2(C)C (stereo not drawn); value = -8.92%
SMILES = O=C1Nc2ccccc2/C1=C1/Nc2ccccc2C1=O; value = 5.98%
SMILES = CCC(CO)(C(=O)OC1CC2CCC(C1)[N+]2(C)C)c1ccccc1 (stereo not drawn); value = 1.86%
SMILES = O=C(O)c1ccc(O)c2ncccc12; value = -0.8%
SMILES = C[C@]12CCC(=O)C=C1[C@@H]1C[C@@H]1[C@H]1[C@@H]3[C@@H]4C[C@@H]4[C@@]4(CCC(=O)O4)[C@@]3(C)CC[C@@H]12; value = 1.06%
SMILES = O=C(O)c1ccc(/C=C2\SC(=S)N(c3cccc(C(F)(F)F)c3)C2=O)cc1; value = 3.89%
SMILES = CN1Cc2c(N)cccc2C(c2ccccc2)C1 (stereo not drawn); value = 3.23%
SMILES = COc1ccccc1C(=O)Nc1cccc(NC(=O)c2cccc(C)c2)c1; value = -7.21%
SMILES = Nc1ncnc(Nc2ccc(Cl)cc2)n1; value = 4.76%
SMILES = O=C1c2cccc3c2[C@H](CCC3)CN1[C@@H]1CN2CCC1CC2; value = 7.95%
SMILES = O=C1NCCN1c1ncc([N+](=O)[O-])s1; value = 6.6%
SMILES = CC1(COc2ccc3c(c2)ncn3-c2ccc3cccc(N4CCC(N)CC4)c3n2)COC1; value = 8.1%
SMILES = N=C(N)SCCc1c[nH]cn1; value = 8.41%
SMILES = N[C@@]1(C(=O)O)CC[C@H]2[C@H](C(=O)O)[C@H]21; value = 5.77%
SMILES = BrC1C(Br)C(Br)C(Br)C(Br)C1Br (stereo not drawn); value = 1.29%
SMILES = O=S(=O)(c1cccc2c(O)nccc12)N1CCCNCC1; value = -0.98%
SMILES = N#Cc1c(N2C[C@@H]3NCCO[C@H]3C2)c(F)cc2c(=O)c(C(=O)O)cn(C3CC3)c12; value = 3.26%

Set 4 — observed: enzyme activity; mode: inhibitor; concentration: 20 µM; notes: primary screen; quantity: inhibition
Target: Replicase polyprotein 1ab, main protease (rep, Severe acute respiratory syndrome coronavirus 2, UniProt P0DTD1)
SMILES = O=C(O)c1ccc(N2C(=O)/C(=C/c3ccc(-c4ccc([N+](=O)[O-])cc4)o3)C=C2c2ccccc2)cc1; value = 61.1%
SMILES = CO/N=C(\C(=O)N[C@@H]1C(=O)N2C(C(=O)O)=C(CSC(=O)c3ccco3)CS[C@H]12)c1csc(N)n1; value = 83.8%
SMILES = CN(C)/N=N/c1ccc(C(=O)O)cc1; value = 71.5%

Set 5 — cell line: HEK-293T/ACE2; concentration: concentration not given; time: 16 (unit not given); relative to: vehicle; quantity: viability
SMILES = CCOC(=O)[C@H](CCc1ccccc1)N[C@@H](C)C(=O)N1CCC[C@H]1C(=O)O; value = 94.8%
SMILES = CC(C)C[C@H](CN)CC(=O)O; value = 96.4%
SMILES = Nc1ccn(C[C@@H](CO)OCP(=O)(O)O)c(=O)n1; value = 104%

Set 6 — technique: RNA Bind-n-Seq; molecule type: RNA; medium: in vitro; concentration: 200 nM; notes: whole 134-nt RNA, ends assumed; together with: 150 mM LiCl; relative to: input library; direction: higher = stronger binding; quantity: log2 enrichment; all molecules: 7-deaza-guanosine replaces G
Target: Ras GTPase-activating protein-binding protein 1, full length (G3BP1, Homo sapiens, UniProt Q13283)
Chain of UniProt Q13283 (whole entry, looked up): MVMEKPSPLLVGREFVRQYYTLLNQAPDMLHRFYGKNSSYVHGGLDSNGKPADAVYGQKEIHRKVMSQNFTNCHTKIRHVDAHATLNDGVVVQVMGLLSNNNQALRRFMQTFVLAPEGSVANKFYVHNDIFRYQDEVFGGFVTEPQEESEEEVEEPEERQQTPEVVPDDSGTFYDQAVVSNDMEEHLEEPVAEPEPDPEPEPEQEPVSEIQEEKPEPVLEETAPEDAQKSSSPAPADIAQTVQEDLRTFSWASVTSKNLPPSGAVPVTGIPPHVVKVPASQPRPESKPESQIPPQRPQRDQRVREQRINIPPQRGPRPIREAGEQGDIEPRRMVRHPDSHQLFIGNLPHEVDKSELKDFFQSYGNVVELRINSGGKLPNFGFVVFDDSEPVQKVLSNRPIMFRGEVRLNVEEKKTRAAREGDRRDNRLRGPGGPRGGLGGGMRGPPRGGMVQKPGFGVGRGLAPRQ
Strand = GGGAGUUCUACAGUCCGACGAUCAAGUCCUGUGCUACACAUCGUAUGUACCGAAUCGGGUUUUUUUGGGAGGGUUUGGGAAAGUAUUAUGUUACGCCGUUCGGAUCUGCACUUUGGAAUUCUCGGGUGUCAAGG; value = -0.545
Strand = GGGAGUUCUACAGUCCGACGAUCUGGCCCUGGUGGCAUGCAGGGAGGAAGAGGUGGCCUCAUGGAUCGUGGUGGUCCCGGUGGAAUGUUCAGAGGUGGCCGUGGUGGAGACAGUGGAAUUCUCGGGUGUCAAGG; value = 0.646
Strand = GGGAGUUCUACAGUCCGACGAUCUCCUGUGCUACACAUCGUAUGUACCGAAUCGGGGCCCCCGGGGCCCCCGGGCCCCCGGGGAAAGUAUUAUGUUACGCCGUUCGGAUCUGCUGGAAUUCUCGGGUGUCAAGG; value = -1.71
Strand = GGGAGUUCUACAGUCCGACGAUCCACAGACAACACGCACCCACACAGACACAGAGGGAAGGGGUUAAAAUGGGGACAGGGUGCACAGCAGGGCGGGGUAGGACCCCAGCCCCUUGGAAUUCUCGGGUGUCAAGG; value = -0.599

Repeated from above (set 5):
SMILES = CCOC(=O)[C@H](CCc1ccccc1)N[C@@H](C)C(=O)N1CCC[C@H]1C(=O)O; value = 94.8%
SMILES = Nc1ccn(C[C@@H](CO)OCP(=O)(O)O)c(=O)n1; value = 104%
SMILES = CC(C)C[C@H](CN)CC(=O)O; value = 96.4%
